Published values of several laboratories.
Numbered parts are unrelated; each lists some results of a single study. Positions count from the first letter of the parent shown.

Block 1 — method: RNA Bind-n-Seq; form: RNA; medium: in vitro; tested at: not given; baseline: input RNA pool; reading: higher = stronger binding
Target: RING finger protein unkempt homolog, zinc fingers 1-6, GST-SBP tag (UNK, Homo sapiens, UniProt Q9C0B0, residues 30-357)
Chain of UniProt Q9C0B0 (30-357, looked up): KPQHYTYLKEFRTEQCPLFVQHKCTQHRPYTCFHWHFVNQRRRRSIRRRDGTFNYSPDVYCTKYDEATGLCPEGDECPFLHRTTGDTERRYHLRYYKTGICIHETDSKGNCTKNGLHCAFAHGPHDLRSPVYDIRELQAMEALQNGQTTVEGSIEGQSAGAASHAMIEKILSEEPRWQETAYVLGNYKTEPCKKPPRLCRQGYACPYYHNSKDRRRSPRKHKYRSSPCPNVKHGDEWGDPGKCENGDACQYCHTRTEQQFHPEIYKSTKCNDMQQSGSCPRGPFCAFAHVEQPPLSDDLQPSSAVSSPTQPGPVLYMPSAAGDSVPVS
Notes: RNA with constant flanks, human and mouse sites, ends assumed
`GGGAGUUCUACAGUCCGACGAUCAAUGCCUACCUUCAGAGCCAGGCCACAGCUACAGACUGGCACGAGAAACAUGAUUACGUUCACCCCCACCAGGGCGUCCCGGACACUCUCACGGGUCCAGAUCUCAAAGAACACCUCAUUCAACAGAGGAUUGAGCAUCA` gave a bound/input enrichment of 0.106 ratio.
`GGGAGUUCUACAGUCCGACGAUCCAGCUUUCAUUACCCCUGAACUUUCUGGGAACUGUAUAUAGAGAGACUAGACAAGCACUCAUAGAUAUGAACACCUUGUUUACUCUACUCAAGGUAGACACCCAAAUUAAAGACAAAGUGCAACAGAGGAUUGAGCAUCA` has a bound/input enrichment of 0.532 ratio.
`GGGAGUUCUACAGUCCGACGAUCCACAUCACUGAAAAUGGGCCAACUGAAGUGGACUACAGUCCUUCUGACAUGCAGGACUCCAGUUUAUCACAUAAGAUACCACCUAUGGAGGAGCCGUCCUACACCCAAGAUAAUGAUCUUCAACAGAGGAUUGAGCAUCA` has a bound/input enrichment of 0.167 ratio.
The bound/input enrichment of `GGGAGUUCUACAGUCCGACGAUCUUCACACUGGAUUACAACUACCCACUUUGUGCAGUACAGGCCUUUGGCAUCGGUCUUUCUAGCUUUGACAGUAAGCUGGCGUGUGAAUGAGAGAACAGUCAGGCAGGGAGCCCUUCUCCCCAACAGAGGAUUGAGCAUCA` is reported as 0.186 ratio.
The bound/input enrichment of `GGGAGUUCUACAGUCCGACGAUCCCAAUGGAACCACAAGGGACUUUAGAUAUCACUCAGCAAGAUACUGCCAAAGGUGAUCAACUAGAAAGAAUUUCUAAUGGACCUGUAUUAACUUUGGGUGGUUCAUCUGUGAGCAGUAUACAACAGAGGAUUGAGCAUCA` is reported as 0.245 ratio.
The bound/input enrichment of `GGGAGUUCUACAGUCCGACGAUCUUUUUUCAGUAAGACUUUCAGGCACUUCUUCCCUUUUGAUUUCUUUUUUUUCCUCUGUUUUUUAGCAUGCAAGUAUGUUGGUACGUUAUGUCCUGGUUUAAAAAGGAUUAAAAUUUUAAACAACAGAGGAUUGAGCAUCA` is reported as 0.826 ratio.
`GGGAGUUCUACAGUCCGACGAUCUUGUGUCUGCAGGAACCUGGAGUAUUCCCACAGGAGGUGGCUGAUCGACUGCUUCGGACCAUGGCUUUUCAUGGUCUAUUGAAUGAUGGAACUGUGGGUAUUUUUAGGGGCAACCAGAUGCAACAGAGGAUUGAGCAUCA` gave a bound/input enrichment of 0.417 ratio.
`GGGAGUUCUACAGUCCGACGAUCAGUCAGAAUGCCACUGAUUUUGAGAAAACGGGAUUUUCUGAAGAAAUUCUAGAUGACGUGAUUUUAUUGAUUAAAUCAGAUAGUGUCCAUCUGUACUGUAAUCCCGUCAACUACCGCUAUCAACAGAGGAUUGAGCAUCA` has a bound/input enrichment of 0.209 ratio.
The bound/input enrichment of `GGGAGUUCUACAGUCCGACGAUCUCCUGGAGUCAGGAAAGACAAACCUUCGCCGAUGUACUUACCUUGUGUUGGAUGAGGCUGACCGGAUGCUUGAUAUGGGCUUUGAGCCCCAGAUCCGUAAAAUUGUUGAUCAAAUCAGGCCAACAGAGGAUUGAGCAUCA` is reported as 0.157 ratio.
`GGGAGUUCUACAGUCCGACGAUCUGGGUGACAGAGCGAGACUUAUAGAUAGAUAGAUAGAUAGAUGGAUAGAUAGAUAGAUAGAUAGAUAGAUAGAUAAACGGAAUUGGAGCCAUUUUGCUUUAAGUGAAUGGCAGUCCCUUGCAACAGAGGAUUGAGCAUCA` has a bound/input enrichment of 237 ratio.
With `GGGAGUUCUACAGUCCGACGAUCGCUGAUGACAUAGCUGGGAAGUUUCAGUUCAGCCGGGGCAUGCGCCGCAGUUACGACGCAGGGUUCAAGCUGAUGGUAGUGGAAUAUGCUGAGAGUACCAACAACUGCCAGGCUGCCAAGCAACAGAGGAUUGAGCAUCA` the bound/input enrichment was 0.139 ratio.

Block 2 — method: RNA Bind-n-Seq; form: RNA; medium: in vitro; tested at: 365 nM; baseline: no-protein control; reading: higher = stronger binding
Target: RNA binding protein fox-1 homolog 2, RRM domain, GST-SBP tag (RBFOX2, Homo sapiens, UniProt O43251-10, residues 100-194)
Notes: natural RNA segment, single round, ends assumed
Residues (chain): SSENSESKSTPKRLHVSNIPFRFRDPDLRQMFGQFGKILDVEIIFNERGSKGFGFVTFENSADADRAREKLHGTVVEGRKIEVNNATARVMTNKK
For `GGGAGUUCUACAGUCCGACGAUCUGGGGGUGGAGCUAUCACUUCCUCCAGAGGGAGGACAUCCCAGGGAUAGCACAAGUGAGUCAGAGUAUUUUCCCAGAGCUGGCGUGGAGGGGGCCCUCAGCGAGAGGUGAUGGAAUUCUCGGGUGCCAA`, “RBNS enrichment (R)” read 0.731.
Under “RBNS enrichment (R)”, `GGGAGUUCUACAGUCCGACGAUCGAUACAGCAGUAGACAUUUUAACAAGAAGAUGAAUGGCGUCCGUGGGUUGCUAACUGAACUUUGAAGACCCGCUACAAAACGCGCAGAUGUGCAGCAGAUUGGAAGGAGAUGGAAUUCUCGGGUGCCAA` is recorded as 0.66.
Under “RBNS enrichment (R)”, `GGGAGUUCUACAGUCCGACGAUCCAGGGAGGCCUUUCCGCGGUGGGAUGUUGAGCUGAGGCCGGAGGAGAAGUAGCAGUCGCUGGCAGAGCACACAGGCUGCUCUGGGGGAUGAGCUGGUGCGUUUAAGGAACUGGAAUUCUCGGGUGCCAA` is recorded as 0.71.
For `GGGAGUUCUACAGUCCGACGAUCAAUAGGCUGGCUACAUGAACACUGUCAGAAAUCCCAGACUUGCCCACAAGGAUAAUGCUGCAUUUUUCUGUCAGAGUCACACAUGUUUUUCUGGAGAGGUUAUUUCUGCAUGGAAUUCUCGGGUGCCAA`, “RBNS enrichment (R)” read 0.676.
`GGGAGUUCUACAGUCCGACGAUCAUAUUUUGGUCUGGGUUUCCUCUUAAGAUUUUAGUUUGUCUGAAUUAAGGAAAAAUGUUUUUAAUAUACAUUCUUAUUUUGUCCCACCCCUCCAGAAAUAAGCUGGAAAUUGGAAUUCUCGGGUGCCAA`: “RBNS enrichment (R)” 0.643.
`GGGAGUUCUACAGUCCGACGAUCUAUUUAAUGUAGUUUCCCAUCCCUAGUCUUCUAUGUCUGUGAUGUUAAUUUCUUUUGUUGCAUAACAAAAUAAAAGAAUUAUGUAUUUUUAACUAAGGAGAGACAUACUGUGGAAUUCUCGGGUGCCAA`: “RBNS enrichment (R)” 0.715.
`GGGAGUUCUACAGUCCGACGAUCACAGCAGGGAAGCGGGAGGAGCUGAGAACUAUUAGAAGUUCCUAUUAUUUAUAAAUUCCACCCAAAGUGGACAGAGUCAGGUGCCAGACCUGAUCUGAAGUGCACCAAGGUGGAAUUCUCGGGUGCCAA` — result for “RBNS enrichment (R)”: 0.819.
`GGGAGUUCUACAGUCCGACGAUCGAGGAUAAGAGAUUUUCUCACAGGAAAUUGUCUUUUUCAUAAUUCUUUUACAGGCUUUGUCCUGAUCGUAGCAUAGAGAGAAUAGCUGGAUAUUUAACUUGUAUUCCAUUUGGAAUUCUCGGGUGCCAA`: “RBNS enrichment (R)” 0.743.
`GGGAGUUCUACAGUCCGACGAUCUGUCUCUUCACUAAGAGUAAACUGGGAAAUUGUAGGCCAAAGUCCAGUUGAACUUUCUAAGUCUGUGAUCCCCGUGCUGACUGUGGAAGUGUAUUUAUACCAAGAUGGAGUGGAAUUCUCGGGUGCCAA` — result for “RBNS enrichment (R)”: 0.33.
`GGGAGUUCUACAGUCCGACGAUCAGCACUUGAGUUGUACAACAGAACACUUGUACAAAAUAGAUUUUAAGGCUAACUUCUUUUCACUGUUGUGACCCUUUGCAAAAUGUAUGUUACAAUAGAUAGUGUCAUGUUGGAAUUCUCGGGUGCCAA`: “RBNS enrichment (R)” 1.71.
`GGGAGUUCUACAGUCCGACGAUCUGUCCUAGGGCGGAGCCAGGCGGUCCUGAGGGGGAGAUGAAUCCUUAGAGGAGCGCUGUCCCUAUCCCUUGCUCCUUCUGGCCGGUCCGCAUUUCUGUUCACUAACCCCAUGGAAUUCUCGGGUGCCAA`: “RBNS enrichment (R)” 0.28.
Under “RBNS enrichment (R)”, `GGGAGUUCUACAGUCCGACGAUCGUCUGACUAUCUUGAGGGAGAAACAAGCAGGUUUCUACUAGUGGUGUCUUCUGUUGUAUUAACUUCUUUCCUUUGUGGUAUCUUGUAUCCUGUUUUAAAAACUAAAUGAAUGGAAUUCUCGGGUGCCAA` is recorded as 0.567.

Block 3 — target: JUN, bZIP domain (human); method: DHFR protein complementation; medium: yeast; baseline: wild-type JUN-FOS pair; reading: higher = stronger binding
Notes: single substitutions, most at no-binding floor
Parent: JUN, bZIP domain (human); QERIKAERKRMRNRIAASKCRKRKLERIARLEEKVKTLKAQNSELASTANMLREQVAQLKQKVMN; partner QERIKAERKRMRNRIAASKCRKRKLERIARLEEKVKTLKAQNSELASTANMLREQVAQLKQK
The binding fitness of `A40C` is reported as -0.526 natural log.
With `M51Q` the binding fitness was -0.148 natural log.
For `A29Y`, the binding fitness was -0.463 natural log.
With `A29N` the binding fitness was -0.393 natural log.
`S47N` has a binding fitness of -0.152 natural log.
With `Q41I` the binding fitness was -0.175 natural log.
With `E54L` the binding fitness was -0.5 natural log.
For `E44F`, the binding fitness was -0.414 natural log.
The binding fitness of `K39V` is reported as -0.163 natural log.
The binding fitness of `N42C` is reported as -1.19 natural log.
For `T48K`, the binding fitness was -0.423 natural log.
`E33F` gave a binding fitness of -0.545 natural log.
For `R30P`, the binding fitness was -1.15 natural log.
For `A49Y`, the binding fitness was -0.283 natural log.
With `E33Y` the binding fitness was -1.09 natural log.
For `R53A`, the binding fitness was -0.381 natural log.
`L52F` gave a binding fitness of -1.09 natural log.
`N42Y` has a binding fitness of -0.864 natural log.
`K34L` gave a binding fitness of 0.0228 natural log.

Block 4 — method: DHFR PCA, deep sequencing; medium: yeast; added: (+)-ABA 0.032 µM; baseline: wild-type fitted maximum; reading: higher = stronger binding
Target: ABI1, truncated, D143A, DHFR fusion (Arabidopsis thaliana)
Notes: methotrexate growth selection, single substitutions
Parent: PYL1, truncated, DHFR fusion (Arabidopsis thaliana); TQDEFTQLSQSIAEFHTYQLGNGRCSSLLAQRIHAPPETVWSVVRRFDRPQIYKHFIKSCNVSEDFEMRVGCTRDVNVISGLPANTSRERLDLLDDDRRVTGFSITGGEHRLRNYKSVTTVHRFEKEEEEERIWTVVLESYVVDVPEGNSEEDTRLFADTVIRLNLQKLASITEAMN
`T160D` — result for “relative binding score”: 0.839%.
`L156F` — result for “relative binding score”: 0.458%.
`A30K` — result for “relative binding score”: 9.3%.
`S9E`: “relative binding score” 38.1%.
`G71R` — result for “relative binding score”: 3.81%.
Under “relative binding score”, `N61S` is recorded as 47.2%.
For `S104Q`, “relative binding score” read -2.51%.
`K168Y`: “relative binding score” 2.84%.
`I12D`: “relative binding score” 4.33%.
`P146G` — result for “relative binding score”: 7.33%.
For `H34D`, “relative binding score” read 39.3%.
Under “relative binding score”, `N114R` is recorded as 5.28%.
For `Y115S`, “relative binding score” read 4.54%.
Under “relative binding score”, `E128G` is recorded as 65.9%.

Block 5 — target: CCNA1, cyclin fold, Cln2 fusion (human); method: yeast growth competition, sequencing; medium: yeast; notes: weak parent motif; baseline: not given; reading: higher = stronger binding
Parent: PLK5 docking peptide (human); IFRKVGQRLLTQC; partner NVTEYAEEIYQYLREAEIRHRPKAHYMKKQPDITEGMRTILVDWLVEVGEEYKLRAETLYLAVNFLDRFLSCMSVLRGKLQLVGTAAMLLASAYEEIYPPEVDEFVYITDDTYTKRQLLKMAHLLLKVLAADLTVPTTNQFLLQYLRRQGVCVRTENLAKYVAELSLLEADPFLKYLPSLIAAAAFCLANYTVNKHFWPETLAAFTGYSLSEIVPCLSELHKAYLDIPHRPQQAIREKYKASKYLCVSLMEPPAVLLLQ
`T11A` — result for “normalised enrichment score”: -0.259.
For `L9A`, “normalised enrichment score” read -0.0837.
Under “normalised enrichment score”, `K4A` is recorded as -0.483.
`L10A` — result for “normalised enrichment score”: -0.459.
For `Q7A`, “normalised enrichment score” read -0.0688.
Under “normalised enrichment score”, `G6A` is recorded as -0.765.
`I1A`: “normalised enrichment score” -0.28.

Other studies, line by line
With `PhoQ, residues 284 288 289 292 302 303 SASVAL` the fold induction was 1.7 (PhoP, residues 12 14 15 18 19 NNFVT (Escherichia coli, UniProt P23836); Sort-seq, refers to: YFP reporter; E. coli; PhoQ-PhoP variant library, added: 10 µM Mg2+; baseline: high Mg2+ state, higher = stronger signaling).

Repeated from above (block 4):
`A30K` — result for “relative binding score”: 9.3%.
`S9E`: “relative binding score” 38.1%.
`G71R` — result for “relative binding score”: 3.81%.
Under “relative binding score”, `N61S` is recorded as 47.2%.
For `S104Q`, “relative binding score” read -2.51%.
`K168Y`: “relative binding score” 2.84%.
`I12D`: “relative binding score” 4.33%.
